# Published values gathered from unrelated publications.
# Every numbered part comes from another study and shows a few of its results, in no order.

# Series 1
# Target: RNA binding protein fox-1 homolog 2, RRM domain, GST-SBP tag (RBFOX2, Homo sapiens, UniProt O43251-10, residues 100-194)
# Method: RNA Bind-n-Seq
# Form: RNA
# Sample: in vitro
# Tested at: 365 nM
# Notes: natural RNA segment, single round, ends assumed
# Baseline: no-protein control
# Direction: higher = stronger binding
# Construct (chain): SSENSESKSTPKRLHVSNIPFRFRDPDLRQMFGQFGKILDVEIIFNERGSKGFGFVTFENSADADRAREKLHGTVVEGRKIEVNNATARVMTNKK
Oligonucleotide,RBNS enrichment (R)
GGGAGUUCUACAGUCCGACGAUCUUCUUCUUAACUUUACUUCUCUUUUUGUCCCCCCCCCAUCUUACAGAAGUUGAGGCCAAGGGAGAAUGGUAGGCACAGAAGAAACAUGGCAAACUGCUCUGUGCUUUCAAUGGAAUUCUCGGGUGCCAA,0.999
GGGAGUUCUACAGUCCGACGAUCCCUAUUGCAACAAAAUUAGGAAGUUUGUUGUAUAAAUAAGCAUGUAAAAGUGCACUUAAAAUGAAUCUUUAUUAUUGCUGAGAUUUUAAUAGACAAUCCAAAGUCUCCCCUGGAAUUCUCGGGUGCCAA,3.37
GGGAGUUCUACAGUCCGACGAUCGUACUUAAGGAAGGUAGUUGCAAAUACCAACUAUGGCCAUGCGAUCAGGCGCAGAAAUGAGGAUUACUGUUUCUUCCAGAUUUUGUUAAGAAUGUGUUCAGAUAUUUGUGUGGAAUUCUCGGGUGCCAA,0.551
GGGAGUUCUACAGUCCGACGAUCCCCCCUCCAUCACCCCCAAGACCCCUCUUCUCCCUCUUCUUAGCCUGCUGUGUGAGAGAGGAGCCAAGAGGCAGGUGCUUGCCGACGGCCGCAUCCUCCUUCCCAGGUGUUGGAAUUCUCGGGUGCCAA,0.839
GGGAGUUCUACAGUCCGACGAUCUUUCAAUCAGUCUCGUGCUCUGUCCCUUUACAUCGGUAUGCGACUAUUACAAUCACUGUGUGUGUGUCUUUUCUUAGCAAAGGCGUUUUAAAACUUGAGCCUGGACCUUGUGGAAUUCUCGGGUGCCAA,0.345
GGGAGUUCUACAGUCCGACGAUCUUUAUCUAGAUUUUUAAAUGUAGCUUGUCAUAACAAAAUUUUAAUUACAAUUGGCUUGUAUGAGAAGAAAAAGUAUUUUUAUUGUUUUGAGUGAUGACGCAGAGACUCAGUGGAAUUCUCGGGUGCCAA,0.622
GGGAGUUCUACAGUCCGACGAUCAUUGAAUUAACUUGCAGUGGUGUGUUUGAUUCUUUUUUAGACUGGCUUCAGCAUUGUGCAGUUUAAAAAUAAGUAAGUAACUUACAUAAAUCUUCAAUUGUAUGAACUGCUGGAAUUCUCGGGUGCCAA,0.669
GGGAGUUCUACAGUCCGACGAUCGAAACCCAUGAUCACCCCUUUGAGGUAGAUUGACCGGCUUUAGACGCCCACCCCCCACCCACCGCAAGCUUUGAGUGGGACACCAUUCUGAAUUUUUUUUCUGAAUUUUUUGGAAUUCUCGGGUGCCAA,0.832
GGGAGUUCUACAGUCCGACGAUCGGCAAGCAGUUCAUCACCAGGACACUAGCUAUGAUUCUAGAAGUCAAAAGGUGUCUAUAGAACUAGUGGGGCUUCUGCAUGUGAAAAACGGUUUUCCAUAGGCAUUAAAGUGGAAUUCUCGGGUGCCAA,4.61

# Series 2
# Target: Ras GTPase-activating protein-binding protein 1, full length (G3BP1, Homo sapiens, UniProt Q13283)
# UniProt Q13283, sequence (whole entry, looked up): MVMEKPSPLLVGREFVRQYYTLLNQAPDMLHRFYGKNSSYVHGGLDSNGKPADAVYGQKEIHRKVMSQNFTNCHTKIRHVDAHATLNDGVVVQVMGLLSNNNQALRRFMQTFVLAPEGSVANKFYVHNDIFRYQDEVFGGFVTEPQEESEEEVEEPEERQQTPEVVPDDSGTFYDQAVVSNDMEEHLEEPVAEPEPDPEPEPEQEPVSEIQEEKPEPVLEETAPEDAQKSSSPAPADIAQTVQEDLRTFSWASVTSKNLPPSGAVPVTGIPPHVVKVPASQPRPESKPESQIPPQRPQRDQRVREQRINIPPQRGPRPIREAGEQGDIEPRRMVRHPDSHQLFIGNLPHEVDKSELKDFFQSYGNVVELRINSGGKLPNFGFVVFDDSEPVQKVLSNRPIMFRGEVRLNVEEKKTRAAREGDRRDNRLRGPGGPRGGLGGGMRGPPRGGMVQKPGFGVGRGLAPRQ
# Method: RNA Bind-n-Seq
# Form: RNA
# Sample: in vitro
# Tested at: 200 nM
# Notes: whole 134-nt RNA, ends assumed
# With: 150 mM KCl
# Baseline: input library
# Direction: higher = stronger binding
Oligonucleotide,log2 enrichment
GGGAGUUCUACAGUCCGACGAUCCACAGACAACACGCACCCACACAGACACAGAGGGAAGGGGUUGGGAUGGGGACAGGGUGCACAGCAGGACGGGGUAGGACCCCAGCCCCUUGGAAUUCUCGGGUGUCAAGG,2.03
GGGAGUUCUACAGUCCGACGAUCUCCUCAAGUCCUGUGCUACACAUCGUAUGUACCGAAUCGGUGGUGGUGGGGAAAGUAUUAUGUUACGCCGUUCGGAUCUGCACUUCCAGCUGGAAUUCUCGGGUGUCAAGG,-0.227
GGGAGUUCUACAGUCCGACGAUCACCAUGCAGGUGGGCACCUUUGGGAAGUGGGGCAAGGGGGGGAUAGGGAGGGGGGUAACACUUUGGGAACAGGUGGUCCCAGGUCGUUUCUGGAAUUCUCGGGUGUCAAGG,1.53
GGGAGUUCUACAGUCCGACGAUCACCAUGCAGGUGGGCAUCUUUGGGAAGUGGGGCAAGGGAGGGAUAGGGAGGGGGGUAACACUUUGGGAACAGGUGGUCCCAGGUCGUUUCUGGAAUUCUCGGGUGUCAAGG,1.29
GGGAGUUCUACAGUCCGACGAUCCAAGUCCUGUGCUACACAUCGUAUGUACCGAAUCGGAAAGGUUUUUUUGGAAAGGAAAGUAUUAUGUUACGCCGUUCGGAUCUGCACUUCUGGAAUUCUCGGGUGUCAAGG,-1.4
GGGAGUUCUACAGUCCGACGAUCAAGUCCUGUGCUACACAUCGUAUGUACCGAAUCGGGCCCCGGCCCCGGGGCCCCGGGAAAGUAUUAUGUUACGCCGUUCGGAUCUGCACUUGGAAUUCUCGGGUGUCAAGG,-1.31
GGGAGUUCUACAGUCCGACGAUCUCCUGUGCUACACAUCGUAUGUACCGAAUCGGGGUUUUUGGGGUUUUUGGGGUUUUUGGGAAAGUAUUAUGUUACGCCGUUCGGAUCUGCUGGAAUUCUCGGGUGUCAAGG,0.3
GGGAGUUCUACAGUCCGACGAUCCAAGUCCUGUGCUACACAUCGUAUGUACCGAAUCGGGGUUUGGGUUUGGGGUUUGGAAAGUAUUAUGUUACGCCGUUCGGAUCUGCACUUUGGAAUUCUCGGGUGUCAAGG,-0.221
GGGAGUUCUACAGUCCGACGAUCUCAAGUCCUGUGCUACACAUCGUAUGUACCGAAUCGGUUUGGUUUGGGGUUUGGAAAGUAUUAUGUUACGCCGUUCGGAUCUGCACUUCCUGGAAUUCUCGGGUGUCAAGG,-0.707
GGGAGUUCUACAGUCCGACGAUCACCAUGCAGGUGGGCAUCUUUGGGAAGUGGGGCAAGGGGGGGAUAGGGAGGGGGGUAACACUUUGGGAACAGGUGGUCCCCGGUCGUUUCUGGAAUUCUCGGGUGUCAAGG,1.45

# Series 3
# Target: Interferon regulatory factor 5, full length, phosphomimetic (IRF5, Homo sapiens, UniProt Q13568-2, residues 1-514, K96S/S451D/S453D/S456D/S462D)
# Method: protein-binding microarray
# Form: double-stranded DNA, one strand shown
# Sample: in vitro
# Tested at: 250 nM
# Notes: 60-bp whole probe
# With: salmon DNA 0.4 mg/ml
# Baseline: random background probes
# Direction: higher = stronger binding
# All sequences stand within: GCCTAGCAC … GTCTTGATTCGCTTGACGCTGCTG
Oligonucleotide,log fluorescence [z-score]
TTAGGTTTCCTTTTGCTTTAGTGCTAG,1.78
ATTGGTTGAACATGAACTTCGTGCTAG,0.108
TGAAATTTTAGTAACACAGAGTGCTAG,1.01
TTAGGACTGCACTATCGGTTAGTGCTA,6.4
TTAGGTATTGGGTATCGGTTAGTGCTA,4.03
TTAAAAAAAAAAAACTGTAACGTGCTA,0.692
GAACCTTGGCCTCTAGGTTTGTGCTAG,-0.445
GACGGTTGCGGTCTCGGGACGTGCTAG,0.486
TTAGATTTCATTCTCGATTAGTGCTAG,2.17
GACGGTTCCGGGTTCGGGACGTGCTAG,0.0935
TACGGTTTCGGGTATCGGGACGTGCTA,7.94
TTAGGAGTGGGACTGGGTTAGTGCTAG,-0.468
GACGGTATGGGGTTTCGGGACGTGCTA,1.22
TTAGATATCAGTTTCGATCAGTGCTAG,9.95
TTAGATCTCAGACTTGATTAGTGCTAG,-0.119
GACGGTTTCTGTTCCGGGACGTGCTAG,3.63
CACTCCACCTCTGTGCTCTTGTGCTAG,-0.062

# Series 4
# Target: RING finger protein unkempt homolog, zinc fingers 1-6, GST-SBP tag (UNK, Homo sapiens, UniProt Q9C0B0, residues 30-357)
# UniProt Q9C0B0, sequence (30-357, looked up): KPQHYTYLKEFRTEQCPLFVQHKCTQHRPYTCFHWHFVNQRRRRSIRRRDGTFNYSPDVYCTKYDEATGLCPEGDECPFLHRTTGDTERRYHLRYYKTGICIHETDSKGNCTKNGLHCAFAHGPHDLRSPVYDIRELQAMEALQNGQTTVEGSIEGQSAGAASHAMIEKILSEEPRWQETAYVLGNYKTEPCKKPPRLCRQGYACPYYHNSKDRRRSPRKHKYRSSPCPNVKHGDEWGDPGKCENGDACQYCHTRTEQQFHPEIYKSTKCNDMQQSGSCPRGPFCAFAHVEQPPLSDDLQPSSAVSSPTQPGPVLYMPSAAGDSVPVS
# Method: RNA Bind-n-Seq
# Form: RNA
# Sample: in vitro
# Tested at: not given
# Notes: RNA with constant flanks, human and mouse sites, ends assumed
# Baseline: input RNA pool
# Direction: higher = stronger binding
Oligonucleotide,bound/input enrichment
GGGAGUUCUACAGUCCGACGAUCCCCCUAUCUAGGCCUUCUUACGAGCCAAAACCUGCCCCUACUCCUCCUAGACCUAACCUGACUAGAAAAGCUAUUACCUAAAACAAUUUCACAGCACCAAAUCUCCACCUCCAUCAUCACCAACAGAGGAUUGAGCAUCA,15.6 ratio
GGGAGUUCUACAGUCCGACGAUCAAGUCUUCUACCAUUACUGUAGACCAAAUGAAAAGAGGUUAUGAGAGAAUUUACAAUGAAAUUCCGGACAUUAAUCUGGAUGUCCCACAUUCAUACUCUGUGCUGGAGCGGUUUGUAGAACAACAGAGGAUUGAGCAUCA,0.628 ratio
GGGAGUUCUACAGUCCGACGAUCAGUCCAGCCCGGUGCCUGGGGCGCCUUUCAGCUCCGCGCUCAGAUUUUCCUGUUUUCGUUGUUUUCAAAGACAGCGACAUUUCGGGUCUGGUGCUAACACCCCCUUCCCAGCCUCUGGGACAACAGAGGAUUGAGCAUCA,0.103 ratio
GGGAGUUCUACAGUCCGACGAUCGUUAAGAGAAGACUAUGGAGCUGUACGAGUCAACGUAUUUUGUUGUCCUCAUCCCUUCAGUAGUUAUUACCGUCAUUUUCCUUUUCUUCUGGCUUUUCAUGAAAGAAACAUUAUAUGAUGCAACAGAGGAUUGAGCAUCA,4.73 ratio
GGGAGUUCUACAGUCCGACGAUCGCUUCUAAAAUGUGAUUAUCGACCAUGGUAUGCAUGAUCGUUGUAAUUGUUGACAUUCCUUUUAGAAGUUGUGAAAUGUUACAACUUGUGCUUCUGUAGACACAAUCUUCUGUCUCCAUACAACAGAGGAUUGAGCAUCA,0.51 ratio
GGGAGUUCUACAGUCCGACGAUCGAACCAUCCUAACAUAGUGAAACUGUUUGAAGUUAUUGAAACAGAGAAGACACUCUAUUUGGUCAUGGAAUACGCAAGUGGGGGUGAAGUCUUUGAUUACUUAGUUGCCCACGGAAGAAUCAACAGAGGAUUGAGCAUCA,0.356 ratio
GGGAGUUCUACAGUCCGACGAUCUGUGAUCAUGCCAAUCCACAGCUUUCAAAUCCAAGUCCGUUUCAGACACUUGGGCUGGAUUUAGUAUUGGAAUGUGUCGCUAGGUACCAACCCAAGCAGCGUUCAAUGUUUACCUUUGUGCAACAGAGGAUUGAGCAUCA,0.161 ratio
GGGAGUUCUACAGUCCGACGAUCUUUUCCUUCAACCCCAAGCUGGAUAAGGAAGAACGGGAGCAGGGCUGGUUGCUGGUUGACCUUAGUGAAGAAUACAAGCGAAUGGGCCUCCCUGAUAAUUAUUGGCAGCUCAGCGAUGUGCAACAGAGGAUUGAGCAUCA,0.169 ratio
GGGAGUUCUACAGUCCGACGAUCACAAGAGUGGCUGUCUCCUCACCCAUGAGUCAGCAUCAGUCAUACAUACAGUACUUGCAUGCUUAUCCUUACCCACAGAUGUACGACCCCAGCCAUCCUGCAUACCGGGCUGUUUCUCCCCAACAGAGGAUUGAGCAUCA,0.395 ratio
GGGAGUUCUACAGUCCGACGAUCGGAUUGUAGAUUUUUGCUUUUUCUUUUUGUUUUUAAAACUUAUUCCAAUUGCUAAAUUGGUAGUUUUUCAGUCUUUAUAAAUACAGGAUUAAAAAUAUAUAUACAGUUAUAUGAAAUGUUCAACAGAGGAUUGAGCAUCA,0.795 ratio
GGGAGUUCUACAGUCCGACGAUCAUUAAACAUUACUUCAGUGUAGUUCCCGGAAAUGUAGGCUCUUCCCCCAGAUCUUCUGAUUUAGUCAAAUUAGCUCAAGAAUGCUGUUACCAUAGCAACAGGGGCAUCGCAGCUCAUGGACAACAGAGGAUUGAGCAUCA,1.73 ratio
